Results of several laboratories.
Every numbered part comes from another study and shows a few of its results, in no order. Changes are numbered by the printed parent chain.

Set 1
Target: Interferon regulatory factor 7, full length, phosphomimetic (IRF7, Homo sapiens, UniProt Q92985, residues 1-503, S471D/S472D/S475D/S476D/S477D/S483D/S484D/S487D)
UniProt Q92985, sequence (whole entry, unmodified, looked up): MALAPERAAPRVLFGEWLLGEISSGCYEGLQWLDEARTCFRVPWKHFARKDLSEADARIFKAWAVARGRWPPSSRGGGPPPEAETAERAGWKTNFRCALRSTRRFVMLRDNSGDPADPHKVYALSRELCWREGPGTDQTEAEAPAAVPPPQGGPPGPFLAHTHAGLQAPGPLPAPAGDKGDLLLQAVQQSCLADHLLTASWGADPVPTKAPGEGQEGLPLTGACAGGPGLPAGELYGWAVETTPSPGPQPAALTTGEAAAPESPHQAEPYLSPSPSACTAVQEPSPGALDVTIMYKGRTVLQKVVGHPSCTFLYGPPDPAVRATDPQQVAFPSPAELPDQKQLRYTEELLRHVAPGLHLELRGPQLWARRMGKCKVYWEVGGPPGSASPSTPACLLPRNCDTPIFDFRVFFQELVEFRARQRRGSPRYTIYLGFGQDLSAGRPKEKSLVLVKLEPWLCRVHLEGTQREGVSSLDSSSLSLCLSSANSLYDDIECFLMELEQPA
Technique: protein-binding microarray
Form: double-stranded DNA, one strand shown
Medium: in vitro
Concentration: 2200 nM top
Setting: 60-bp whole probe
Added: salmon DNA 0.4 mg/ml
Baseline: random background probes
Direction: higher = stronger binding
Quantity: fitted relative affinity
Shared flanks, not repeated: GCCTAGCAC … GTCTTGATTCGCTTGACGCTGCTG
GACGGTTTGGGTATCGGGACGTGCTAG: 0.652 z-score
TAAGGTTTCGGGACTGGGTTAGTGCTA: 2.78 z-score
GCCATTTTCCCTCCCTAATTGTGCTAG: 3.6 z-score
TTAGGACTGGGTTTCGCTTAGTGCTAG: 2.15 z-score
GACGGACTGGGTTTCGGGGCGTGCTAG: 0.263 z-score
GACGGTATCGACTATCGGGATGTGCTA: -0.0316 z-score
GACGGTTTCGGTTCCGGGATGTGCTAG: 11.8 z-score
GACGCTATCAGACTGGAGACGTGCTAG: 0.052 z-score

Set 2
Target: ABI1, truncated, D143A, DHFR fusion (Arabidopsis thaliana)
Technique: DHFR PCA, deep sequencing
Medium: yeast
Setting: methotrexate growth selection, single substitutions
Added: (+)-ABA 0.11 µM
Baseline: wild-type fitted maximum
Direction: higher = stronger binding
Quantity: relative binding score
Parent: PYL1, truncated, DHFR fusion (Arabidopsis thaliana); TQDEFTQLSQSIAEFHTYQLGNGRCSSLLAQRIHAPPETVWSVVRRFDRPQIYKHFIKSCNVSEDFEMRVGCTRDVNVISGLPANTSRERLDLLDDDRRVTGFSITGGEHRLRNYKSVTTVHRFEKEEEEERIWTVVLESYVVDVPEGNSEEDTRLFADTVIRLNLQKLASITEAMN
T1Y: 37.2%
R49H: 5.8%
A35D: -1.5%
L82M: 38.5%
T17A: 10.4%
W41Y: -12.4%
E89T: 2.51%
S42I: -3.48%

Set 3
Target: Histone acetyltransferase KAT6A, both winged helices, GST fusion (KAT6A, Homo sapiens, UniProt Q92794, residues 1-181)
Technique: protein binding microarray
Form: double-stranded DNA, one strand shown
Medium: in vitro
Concentration: not given
Setting: 8-mer, flanks averaged, mean of 2 arrays, mostly near background
Baseline: not given
Direction: higher = stronger binding
Quantity: E-score
Target sequence (chain): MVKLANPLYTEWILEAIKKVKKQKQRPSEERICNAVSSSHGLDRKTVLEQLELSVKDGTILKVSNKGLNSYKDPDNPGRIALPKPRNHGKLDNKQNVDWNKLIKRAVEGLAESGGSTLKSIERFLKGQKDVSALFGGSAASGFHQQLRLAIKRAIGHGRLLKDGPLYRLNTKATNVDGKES
ACCAACAG: -0.0388
ACCCAAGA: -0.268
AGAATGGG: -0.219
CCGTGAAC: 0.191
ATTACGCC: 0.0884
AAATCCTC: -0.175
CAAGATTA: -0.196
AGAGGCAT: -0.0391

Further values, each from its own experiment
Parent: PafA, mature enzyme, eGFP fusion (Elizabethkingia meningoseptica, UniProt Q9KJX5); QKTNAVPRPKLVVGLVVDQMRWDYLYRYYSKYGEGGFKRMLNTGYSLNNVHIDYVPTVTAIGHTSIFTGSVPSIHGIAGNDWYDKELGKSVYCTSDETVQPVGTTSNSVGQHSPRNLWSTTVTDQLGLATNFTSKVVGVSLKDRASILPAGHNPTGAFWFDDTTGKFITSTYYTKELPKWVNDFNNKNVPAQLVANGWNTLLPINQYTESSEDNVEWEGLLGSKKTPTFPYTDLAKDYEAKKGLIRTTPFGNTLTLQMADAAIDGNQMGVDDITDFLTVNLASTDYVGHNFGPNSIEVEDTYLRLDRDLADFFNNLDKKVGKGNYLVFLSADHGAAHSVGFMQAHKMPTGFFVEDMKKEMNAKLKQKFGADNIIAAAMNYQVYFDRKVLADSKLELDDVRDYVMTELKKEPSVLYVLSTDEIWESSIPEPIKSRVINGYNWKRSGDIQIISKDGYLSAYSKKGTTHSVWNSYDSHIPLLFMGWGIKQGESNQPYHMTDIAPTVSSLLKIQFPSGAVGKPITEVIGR
R526G
oxyanion analog dissociation constant (tungstate, free oxyanion; microfluidic competitive inhibition; in vitro, cell-free expressed; not given, derived from inhibition constants, unchanged parent 2230 nM; lower = stronger binding): 2.36 µM

Some of these lines once more (set 3):
AAATCCTC: -0.175
AGAGGCAT: -0.0391
CCGTGAAC: 0.191
ACCAACAG: -0.0388
